Results of several laboratories.
Every numbered part comes from another study and shows a few of its results, in no order.

Series 1
Target: Fragile X messenger ribonucleoprotein 1, C-terminal low-complexity region (Fmr1, Mus musculus, UniProt P35922)
Technique: RNA Bind-n-Seq
Form: RNA
Matrix: in vitro
Tested at: 200 nM
Notes: whole 134-nt RNA, ends assumed
With: 150 mM LiCl
Relative to: input library
Reading: higher = stronger binding
All molecules: 7-deaza-guanosine replaces G
Shared flanks, not repeated: GGGAGUUCUACAGUCCGACGAUC … UGGAAUUCUCGGGUGUCAAGG
With `UCCUGUGCUACACAUCGUAUGUACCGAAUCAAACCCAAAUUUUUUUAAAUUUUUUUAAAAAAGUAUUAUGUUACGCCGUUCGGAUCUGCA` the log2 enrichment was -1.63.
The log2 enrichment of `UGGGAGGUGGAUUUUGUUUAUUUUUUUAGCUCAUUUCCAGGGGUGGGAAUUUUUUUUUAAUAUGUGUCAUGAAUAAACUUGUUUUUGAAA` is reported as 0.0494.
The log2 enrichment of `UGGGAGGUGGAUUUUGUUUAUUUUUUUAGCUCAUUUCCAGGGGGGGGAAUUUUUUUUUAAUAUGUGUCAUGAAUAAAGUUGUUUUUGAAA` is reported as 0.874.
The log2 enrichment of `UCCCAGCCGAGGACGUCGGAUGUCAUCGUCCUUGCUGCUUUGCCACCCCAUUCCCGUCAAUAAAGUGGUUUGAACCCAACCCUGGUGUCG` is reported as -0.591.
For `UCAAGUCCUGUGCUACACAUCGUAUGUACCGAAUCGGUUUUUUUGGUUUGGUGGAAAGUAUUAUGUUACGCCGUUCGGAUCUGCACUUCC`, the log2 enrichment was -1.62.
With `CACAGACAACACGCACCCACACAGACACAGAGGGAAGGGGUUGGGAUGGGGACAGGGUGCAGAGCAGGGCGGGGUAGGACCCCAGCCCCU` the log2 enrichment was 0.247.
For `GUCCUGUGCUACACAUCGUAUGUACCGAAUCGGGGUUUGGGGUUUGGGGAAAAAGGGGAAAGUAUUAUGUUACGCCGUUCGGAUCUGCAC`, the log2 enrichment was -1.14.
The log2 enrichment of `UCAAGUCCUGUGCUACACAUCGUAUGUACCGAAUCGGGGUUGGUUGGGGUUGGGAAAGUAUUAUGUUACGCCGUUCGGAUCUGCACUUCC` is reported as -1.52.

Series 2
Target: Histone acetyltransferase KAT6A, winged helix 1, GST fusion (KAT6A, Homo sapiens, UniProt Q92794, residues 1-85)
Technique: protein binding microarray
Form: double-stranded DNA, one strand shown
Matrix: in vitro
Tested at: not given
Notes: 8-mer, flanks averaged, mean of 2 arrays, mostly near background
Relative to: not given
Reading: higher = stronger binding
Residues (chain): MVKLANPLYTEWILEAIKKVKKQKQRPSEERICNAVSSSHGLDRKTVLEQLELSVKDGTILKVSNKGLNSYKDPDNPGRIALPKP
For `TGGCGACA`, the E-score was -0.0598.
The E-score of `AATTCGGA` is reported as 0.0534.
The E-score of `CTCTATGC` is reported as 0.049.
With `ACGCATCT` the E-score was -0.0103.
`AATACCTG` gave an E-score of -0.0879.
For `AGGCTCCA`, the E-score was -0.108.
The E-score of `AAGGGGTG` is reported as -0.0472.
`CGGACGGC` has an E-score of 0.451.
With `TATAGCGA` the E-score was -0.0241.
`CGAAGGAC` has an E-score of 0.0968.
`CTGCTGTA` has an E-score of -0.171.
`CACGCATG` has an E-score of 0.0428.
The E-score of `GATAACGA` is reported as -0.227.
With `GTGGGCTA` the E-score was -0.194.
`GGTACCAA` gave an E-score of -0.0293.
The E-score of `GACTTTGC` is reported as 0.0373.
The E-score of `AGACCTGG` is reported as -0.0324.

Series 3
Target: RNA binding protein fox-1 homolog 2, RRM domain, GST-SBP tag (RBFOX2, Homo sapiens, UniProt O43251-10, residues 100-194)
Technique: RNA Bind-n-Seq
Form: RNA
Matrix: in vitro
Tested at: 365 nM
Notes: natural RNA segment, single round, ends assumed
Relative to: no-protein control
Reading: higher = stronger binding
Shared flanks, not repeated: GGGAGUUCUACAGUCCGACGAUC … UGGAAUUCUCGGGUGCCAA
Construct (chain): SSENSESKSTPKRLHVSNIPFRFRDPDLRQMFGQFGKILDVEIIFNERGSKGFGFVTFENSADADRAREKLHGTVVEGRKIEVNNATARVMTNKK
Under “RBNS enrichment (R)”, `CCUGGGAGGUCUGAGCAGAGGGAGGCCCCCAAGAGUGCCAUUGACCAAGAGACAGCAGACAGCCUGCCUCCUGGGGCGUGCCGGCACCUGCUUCAGCUACUGCCUCCUGU` is recorded as 0.615.
For `ACACGGGCAACAAAGUAGGGAUUUGAUUCCCCUUUGAGGAGGUAGUGCUGUUUGCUUUUAGGUCUGGGUGCUCAGGGGCCCUCACUGAUACAAGAGCCCAUCUCUUCUCC`, “RBNS enrichment (R)” read 0.234.
`AUGUGCAAAUAAUACCAUAUUCAUUUUUUAUUUAACAUGGGGAUGGAAUGGGGAUAGCAUACAUUUUAUUUGUACAAUAUUUAACAAUCACUUAUUCAAGGUGGGAUUUU` — result for “RBNS enrichment (R)”: 0.626.
Under “RBNS enrichment (R)”, `UCAUGCAUAUCAUUGAAAAUUUCUCGUUUUCAUUUUCUUAGAUGACUUCUUGUCUGAGACAGAAAAAUUUCCUACUACAGCAGUGCAGUCCAGAGGUUAAGAUGUAUUAG` is recorded as 0.381.
`UCUCCAGACCUUGCUGCCCUUGCCUGGUCAUCUUUGUACAGUAAUUGUAAAUGGCAGUGGAGACUAUGGUGUUCCUGAGGGGCAAUGGCAGGUCACUCUCCCGAUCUCCC`: “RBNS enrichment (R)” 0.327.
For `ACUUUUCAGAGAACCCUUCUGUGCCAGGACUCGUGGAAGCCUGGAGCGGAGCAGAUGCCUGUCCAAGCUGGUCAAGUCCUUCUAGUUCUUGGGCUGAAAUAAGUAACAGU`, “RBNS enrichment (R)” read 0.444.
`UGUUACUACUUAGUCACAAACCCCACAUUAUUCCAGUUUGGAAUUACUUAUUAAGGAGAAUUGGAAAUACAUAUGCCCAUGCUUAAAUUUUAUAGCUUUAAUUUGUGUUA` — result for “RBNS enrichment (R)”: 0.428.
`CUGCCGCUCCUCUGGUCACAGUCCACGCAGGCCAGCCCUGGUUUCUGGAAAGAGGCCUCCCUCCCUCCCUUUGUGGAGCCGUCAGUCAUCCCCAAGAUGAGAGGCGAGCA` — result for “RBNS enrichment (R)”: 0.674.

Series 4
Target: Centromere-binding protein 1, full length, N-terminal tag (CBF1, Saccharomyces cerevisiae, UniProt P17106, residues 1-351)
Sequence of UniProt P17106 (whole entry, looked up): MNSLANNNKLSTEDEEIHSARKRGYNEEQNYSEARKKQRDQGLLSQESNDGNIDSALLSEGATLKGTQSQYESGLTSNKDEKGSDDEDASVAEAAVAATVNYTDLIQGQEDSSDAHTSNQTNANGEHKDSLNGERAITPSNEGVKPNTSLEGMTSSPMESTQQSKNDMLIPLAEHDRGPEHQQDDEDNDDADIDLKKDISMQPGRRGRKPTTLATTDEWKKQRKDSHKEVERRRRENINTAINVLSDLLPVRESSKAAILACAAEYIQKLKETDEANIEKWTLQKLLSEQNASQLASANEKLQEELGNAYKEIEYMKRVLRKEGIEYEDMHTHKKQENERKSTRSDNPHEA
Technique: protein-binding microarray
Form: double-stranded DNA, one strand shown
Matrix: in vitro
Tested at: 0.8 µM
Notes: whole 60-bp probe, no competitor
Reading: higher = stronger binding
Shared flanks, not repeated: … GTCTTGATTCGCTTGACGCTGCTG
With `CTATCTTCATCTATGCATGTGCCTCTCCCAACGTTC` the fluorescence intensity was 744 a.u.
The fluorescence intensity of `GAAGTCAGCCGTTTCCACGTGACGGGAAAAGTGTAG` is reported as 9470 a.u.
With `GAATAGAATAAACGAAAGGTGACAGAAATAGAATAG` the fluorescence intensity was 551 a.u.
With `CCTAACTACTATAGTCACAACAAATAGCTTCGTACA` the fluorescence intensity was 523 a.u.
The fluorescence intensity of `GAAGACGCGTTCCGTGACACGTTAAAGGATAATTAG` is reported as 718 a.u.
With `GAAGAAAAATTACATCAGCGAACTAATGCTTTCTAG` the fluorescence intensity was 512 a.u.
The fluorescence intensity of `CTATTTATCTTTTCTCACCTCACAACGTTTATATTC` is reported as 560 a.u.
For `GAAAATAACAGCAATCACGTCTAAAAAGCTTTCTAG`, the fluorescence intensity was 545 a.u.
`GAATTTTTTTGCAGTCATGTGAATTTTCCGACTTAG` has a fluorescence intensity of 2170 a.u.
With `GAATTGCACTTACGTGACGTGACGAAATATTAGTAG` the fluorescence intensity was 1060 a.u.
`GAAAGCTGTTAAAGCTGCGTCACGAGTAATGAGTAG` gave a fluorescence intensity of 1290 a.u.
The fluorescence intensity of `GAATTCATGCGATTTCTCCTGATAATAGACGATTAG` is reported as 531 a.u.
`CTAGCTTTTGTACATATCGTGTCATACTGCGACTTC` gave a fluorescence intensity of 608 a.u.
For `CTAAGAATTAAGTAACACGCAACAACTGCATTCTTC`, the fluorescence intensity was 537 a.u.
`GAAACTATTACATATCACATGGTATAGCATACATAG` gave a fluorescence intensity of 3550 a.u.
`CTAATGCGATGTGGCCACGTTATATAATGCGTTTTC` has a fluorescence intensity of 580 a.u.
For `GAATGGATCTTTGCTTGCGTCACCAGTCCATCCTAG`, the fluorescence intensity was 529 a.u.
With `CTACCCTCTAAACACGTGGAGAGTAACCTTTTCTTC` the fluorescence intensity was 3410 a.u.
For `CTACAGGCAGCAAAAAACGTGATAGTAAAGCTATTC`, the fluorescence intensity was 1420 a.u.

Some of these lines once more (series 4):
The fluorescence intensity of `GAATTCATGCGATTTCTCCTGATAATAGACGATTAG` is reported as 531 a.u.
`CTAGCTTTTGTACATATCGTGTCATACTGCGACTTC` gave a fluorescence intensity of 608 a.u.
For `CTAAGAATTAAGTAACACGCAACAACTGCATTCTTC`, the fluorescence intensity was 537 a.u.
`GAAACTATTACATATCACATGGTATAGCATACATAG` gave a fluorescence intensity of 3550 a.u.
`CTAATGCGATGTGGCCACGTTATATAATGCGTTTTC` has a fluorescence intensity of 580 a.u.
For `GAATGGATCTTTGCTTGCGTCACCAGTCCATCCTAG`, the fluorescence intensity was 529 a.u.
